Published values collected from several papers.
Each numbered part is a random draw from the data of one study; scales do not carry over between parts. Substitutions count along the parent as printed.

Block 1 — method: protein-binding microarray; molecule type: double-stranded DNA, one strand shown; sample: in vitro; tested at: not given; direction: higher = stronger binding
Target: Protein max, full length (MAX, Homo sapiens, UniProt P61244-2, residues 1-151)
Setting: k-mer, scored over probes, only values ≥0.25
Oligonucleotide | E-score
GTGCATGA | 0.341
CACGCCAC | 0.388
CCTCGCAC | 0.254
ATGTGCGG | 0.371
GGGCGTGA | 0.31
AACATGAT | 0.275
GCGTGCCC | 0.374
ATACCATG | 0.261
CCATATGC | 0.346
CGTGCTTA | 0.407
AACGTGAC | 0.425
CATGTTTC | 0.322
ATGTCATG | 0.314

Block 2 — method: protein binding microarray; molecule type: double-stranded DNA, one strand shown; sample: in vitro; tested at: not given; reference: not given; direction: higher = stronger binding
Target: Histone acetyltransferase KAT6A, winged helix 2, GST fusion (KAT6A, Homo sapiens, UniProt Q92794, residues 85-181)
Setting: 8-mer, flanks averaged, mean of 2 arrays, mostly near background
Residues (chain): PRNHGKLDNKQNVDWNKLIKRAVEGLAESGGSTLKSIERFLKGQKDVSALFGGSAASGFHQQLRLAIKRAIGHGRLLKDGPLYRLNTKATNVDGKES
Oligonucleotide | E-score
TCATTAAA | 0.247
CGCTGATA | 0.0479
ATTCATAG | 0.137
CATTGATA | -0.0149
AGACCAAG | 0.0339
ATTCAGCC | -0.0163
AAAAGGAG | 0.00594
GGATCTAC | -0.078
ACGGGAGG | 0.0604
CAGGGATC | 0.0316
GAACCCAC | 0.2
CGCGTCGA | 0.118
ACTGAGAA | -0.00259
CCCCGCCG | 0.203

Block 3 — method: aptamer microarray, sandwich; molecule type: DNA with 2'F-ANA; sample: in vitro; tested at: 200 nM; together with: Cy3 exosite-II aptamer, 400 nM; direction: higher = stronger binding; oligonucleotide: GGTTGGTGTGGTTGG
Target: Prothrombin, mature alpha-thrombin (F2, Homo sapiens, UniProt P00734)
Setting: whole 15-mer aptamer, many near background
Modification | mean fluorescence intensity
2'F-ANA at 3 5 11 13 15 | 120 a.u.
2'F-ANA at 1 3 4 7 9 10 11 15 | 60.4 a.u.
2'F-ANA at 2 3 4 6 9 11 12 13 14 | 216 a.u.
2'F-ANA at 2 5 8 13 14 15 | 46.3 a.u.
2'F-ANA at 4 5 8 11 12 15 | 104 a.u.
2'F-ANA at 2 5 6 7 8 9 10 11 13 15 | 52.2 a.u.
2'F-ANA at 2 4 6 8 10 12 | 108 a.u.
2'F-ANA at 1 6 7 9 10 11 12 13 14 | 49 a.u.
2'F-ANA at 1 2 4 6 7 8 9 10 12 15 | 60.2 a.u.
2'F-ANA at 1 2 4 5 6 8 12 15 | 110 a.u.
2'F-ANA at 2 3 5 7 9 11 13 14 | 53.7 a.u.
2'F-ANA at 1 7 10 13 14 15 | 45.9 a.u.
2'F-ANA at 1 6 7 8 9 | 219 a.u.
2'F-ANA at 1 3 5 6 8 9 10 11 13 14 | 48.2 a.u.
2'F-ANA at 2 4 5 6 7 9 10 12 15 | 50.7 a.u.
2'F-ANA at 1 3 6 7 9 11 12 15 | 346 a.u.
2'F-ANA at 1 2 6 8 9 11 12 13 | 202 a.u.
2'F-ANA at 3 4 5 6 8 9 10 11 13 15 | 50.9 a.u.
2'F-ANA at 2 4 5 7 9 10 11 14 15 | 46.5 a.u.
2'F-ANA at 1 5 7 8 10 11 14 15 | 48.4 a.u.
2'F-ANA at 1 2 4 6 8 9 13 | 79.7 a.u.
2'F-ANA at 1 3 4 6 8 9 12 13 14 | 67.3 a.u.
2'F-ANA at 1 2 4 7 8 9 11 13 | 85.4 a.u.
2'F-ANA at 1 2 3 7 9 10 11 12 13 15 | 81.4 a.u.

Block 4 — target: CCND2, cyclin fold, Cln2 fusion (human); method: yeast growth competition, sequencing; sample: yeast; setting: weak parent motif; reference: not given; direction: higher = stronger binding
Starting sequence: RBL2 docking peptide (human); STTRRRLFVENDS
Substitution | normalised enrichment score
STTRFRLFVENDS [R5F] | -0.455
STTRQRLFVENDS [R5Q] | 0.397
HTTRRRLFVENDS [S1H] | -0.0196
STTRRRLPVENDS [F8P] | 0.643
STTRRPLFVENDS [R6P] | 0.0442
QTTRRRLFVENDS [S1Q] | 0.148
STTRPRLFVENDS [R5P] | 0.598
STFRRRLFVENDS [T3F] | 0.308
STTRRRLFVENCS [D12C] | -0.0664
STTRRSLFVENDS [R6S] | 0.201
STTRRRLTVENDS [F8T] | 0.256
KTTRRRLFVENDS [S1K] | 0.00103
DTTRRRLFVENDS [S1D] | 0.0651

Block 5 — method: RNA Bind-n-Seq; molecule type: RNA; sample: in vitro; tested at: 200 nM; setting: whole 134-nt RNA, ends assumed; together with: 150 mM LiCl; reference: input library; direction: higher = stronger binding; library: 7-deaza-guanosine replaces G
Target: Fragile X messenger ribonucleoprotein 1, C-terminal low-complexity region (Fmr1, Mus musculus, UniProt P35922)
Shared flanks, not repeated: GGGAGUUCUACAGUCCGACGAUC … UGGAAUUCUCGGGUGUCAAGG
Oligonucleotide | log2 enrichment
AACUGGAAGAACAGACCCGUAGGGCUCUGGAACUUGAGCAGGAACGGAAGCGUGCCCAGAGCGAGGCUGAAAAGCUGGCCAAGGAGCGUC | -1.4
ACCAUGCAGGUGGGCAUCUUUGGGAAGUGGGGCAAGGGGGGGAUAGGGAGGGUGGUAACACUUUGGGAACAGGUGGUCCCAGGUCGUUUC | 0.956
CUGUGCUACACAUCGUAUGUACCGAAUCGGGGAAAGGGGUUUUUUUGGGGUUUUUUUGGGGAAAGUAUUAUGUUACGCCGUUCGGAUCUG | -0.306
AGUCCUGUGCUACACAUCGUAUGUACCGAAUCAAACCCAAAUUUUUAAACCCCCAAAAAAGUAUUAUGUUACGCCGUUCGGAUCUGCACU | 1.06
CCUGUGCUACACAUCGUAUGUACCGAAUCGGGUUUUUUUGGGUUUUUGGGAAAAAAAGGGAAAGUAUUAUGUUACGCCGUUCGGAUCUGC | -1.9
CUGUGCUACACAUCGUAUGUACCGAAUCGGGGAAAAAAAGGAAAAAAAGGGGAAAAAAAGGGAAAGUAUUAUGUUACGCCGUUCGGAUCU | 0.444

Block 6 — method: RNAcompete; molecule type: RNA; sample: in vitro; tested at: 20 nM; setting: 7-mer, probes averaged, single round; reference: mean of 7-mers; direction: higher = stronger binding
Target: PABPC1L2, full length, GST fusion (mouse, UniProt A0ABA7IW68)
Construct (chain): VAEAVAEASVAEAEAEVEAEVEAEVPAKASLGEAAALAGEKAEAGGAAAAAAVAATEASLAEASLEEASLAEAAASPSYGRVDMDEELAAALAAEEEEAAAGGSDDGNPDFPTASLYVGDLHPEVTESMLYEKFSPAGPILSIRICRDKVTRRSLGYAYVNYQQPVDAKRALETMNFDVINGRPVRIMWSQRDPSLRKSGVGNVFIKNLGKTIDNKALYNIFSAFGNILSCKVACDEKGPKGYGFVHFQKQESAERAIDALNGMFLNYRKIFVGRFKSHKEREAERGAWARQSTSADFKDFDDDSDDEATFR
Oligonucleotide | 7-mer Z-score
GUGAUUC | -0.204
AGGUCGU | -0.347
GGGAAGG | 0.369
CCAUCAU | -0.36
GUUAGCG | -0.155
GAAAAGG | 1.4
GUCGGAU | -0.0971
CACGUAU | -0.0464
AGCAAAU | 0.149
UGGGACU | 0.283
ACGCGUG | -0.233
CGCAUUG | -0.233
CUACUGG | -0.258
GGUUCCA | -0.108

A few entries again (block 1):
Oligonucleotide | E-score
CACGCCAC | 0.388
CCTCGCAC | 0.254
ATGTGCGG | 0.371
GGGCGTGA | 0.31
AACATGAT | 0.275
GCGTGCCC | 0.374
ATACCATG | 0.261
CCATATGC | 0.346
CGTGCTTA | 0.407
AACGTGAC | 0.425
CATGTTTC | 0.322
ATGTCATG | 0.314
